Measurements pooled from the literature.
“And” joins repeats or separate records; there may be more than shown. ± gives the spread as reported.

Under “blood glucose AUC(0-96)”, `CCCCCCCCCCCCCCCC(=O)N[C@@H](CCC(=O)NCCCC[C@H](NC(=O)CCOCCOCCOCCOCCNC(=O)CNC(=O)CCN1C(=O)CC(SC[C@H](NC(=O)CNC(=O)[C@H](CO)NC(=O)CNC(=O)CNC(=O)CNC(=O)CNC(=O)[C@H](CO)NC(=O)CNC(=O)CNC(=O)CNC(=O)CNC(=O)[C@H](CO)NC(=O)CNC(=O)CNC(=O)CNC(=O)CNC(=O)[C@H](CCCNC(=N)N)NC(=O)CNC(=O)[C@H](CCCNC(=N)N)NC(=O)[C@@H](NC(=O)[C@H](CC(C)C)NC(=O)[C@H](Cc2c[nH]c3ccccc23)NC(=O)[C@H](C)NC(=O)[C@@H](NC(=O)[C@H](Cc2ccccc2)NC(=O)[C@H](CCC(=O)O)NC(=O)[C@H](CCCCN)NC(=O)[C@H](C)NC(=O)[C@H](C)NC(=O)[C@H](CCC(N)=O)NC(=O)CNC(=O)[C@H](CCC(=O)O)NC(=O)[C@H](CC(C)C)NC(=O)[C@H](Cc2ccc(O)cc2)NC(=O)[C@H](CO)NC(=O)[C@H](CO)NC(=O)[C@@H](NC(=O)[C@H](CC(=O)O)NC(=O)[C@H](CO)NC(=O)[C@@H](NC(=O)[C@H](Cc2ccccc2)NC(=O)[C@@H](NC(=O)CNC(=O)[C@H](CCC(=O)O)NC(=O)C(C)(C)NC(=O)[C@@H](N)Cc2cnc[nH]2)[C@@H](C)O)[C@@H](C)O)C(C)C)[C@@H](C)CC)C(C)C)C(=O)O)C1=O)C(=O)NCCOCCOCCOCCOCCC(=O)N[C@@H](CCCCNC(=O)CC[C@H](NC(=O)CCCCCCCCCCCCCCCCC(=O)O)C(=O)O)C(=O)OC)C(=O)O` (stereo partly shown) is recorded as 5210 ± 847% (db/db mouse; subcutaneous, 100 nmol/kg single, 0 to 96 h; reference: baseline).
For `CCN1[C@@H](C(=O)NC23CCC(C(=O)O)(CC2)CC3)[C@H](c2cccc(Cl)c2F)[C@]2(C(=O)Nc3cc(Cl)ccc32)C12CCCCC2`, “serum MIC-1 (GDF-15) level” read “increased” (patients with advanced solid tumours; 100 mg, 24 h after dose; reference: before dosing).
For `C[C@@H](NC(=O)N1C(=O)[C@H](Cc2ccnc(N)c2)[C@H]1C(=O)O)C1CCCCC1`, the ACT AUEC was 14100 h·s (human; iv infusion, 0.6 mg/kg/h, 24 h).
`Cn1cc(Nc2nccc(-c3ccc4c(c3)CN(C3COC3)CC[C@H]4NC(=O)c3cn(C(C)(C)C)nn3)n2)cn1` — result for “pathway activation z-score”: 3.4 (refers to: Tec kinase signaling; splenic B cells, mice; 30 mg/kg, IgD-activated in vivo; reference: vehicle, direction not given).
Under “percent change from baseline”, `C[C@H]1C[C@H]2CSC(N)=N[C@@]2(c2nc(NC(=O)c3ccc(OC(F)F)cn3)cs2)CO1` is recorded as -70.4% (refers to: total Aβ; healthy adults, plasma; 275 mg once daily, day 10; reference: placebo).
Under “ISG15 mRNA level”, `CCCCOc1nc(N)c2c(n1)N(Cc1cccc(CN3CCCC3)c1)CC(=O)N2` is recorded as “increased” (qPCR; human, blood; dose not given, three dosing periods; reference: baseline).
Under “fractional hepatic DNL”, `COc1ccccc1[C@H](Cn1c(=O)n(C(C)(C)C(=O)O)c(=O)c2c(C)c(-c3ncco3)sc21)OC1CCOCC1` is recorded as 5.14 % new palmitate ([1-13C]acetate infusion, isotopomer analysis; overweight or obese healthy men, plasma VLDL-TG palmitate; oral, 50 mg single dose, 4 h post-dose, together with: oral fructose).
`Cc1ccc(C(=O)OCc2ccc([C@@H](CN)C(=O)Nc3ccc4cnccc4c3)cc2)c(C)c1` has an IOP of 16.8 mmHg (tonometry; Macaca cyclopis, ocular normotensive; ocular, 0.02%, 8 h).
With `Cn1cc([C@H]2C[C@H]3CSC(N)=N[C@@]3(c3ccc(F)cc3F)CO2)cn1` the Aβ42 level was 0.31 ng/g (refers to: Aβx-42; Mus musculus wild-type, brain; subcutaneous, 50 mg/kg, 13 h).
For `O=C(O)/C=C/c1ccc(O)c(O)c1`, protein level read “increased” (western blot, refers to: HO-1 and NQO1; C57BL/6 mouse, myocardial ischaemia-reperfusion, heart; dose not given).
The hepatic triglycerides of `C[C@H]1O[C@@H](O[C@H]2CC[C@@]3(C)[C@@H](CC[C@]4(C)[C@@H]3C=C[C@]35OC[C@@]6(CCC(C)(C)C[C@H]63)[C@@H](O)C[C@]54C)[C@]2(C)CO)[C@H](O)[C@@H](O[C@@H]2O[C@H](CO)[C@@H](O)[C@H](O)[C@H]2O)[C@H]1O` is reported as 0.0446 mmol/g protein and 0.0527 mmol/g protein and 0.0841 mmol/g protein and 0.0474 mmol/g protein and 0.07 mmol/g protein and 0.0562 mmol/g protein (Mus musculus, pair-fed control, liver; oral, 15 mg/kg/day).
`C[C@@H](O)CCOC(=O)C[C@@H](C)O` has a metabolite level of 6.39 ± 0.28 µmol/L (refers to: Arg; human, plasma; 60 min, log2-transformed values).
Under “sensory block duration”, `CCCN1CCCC[C@H]1C(=O)Nc1c(C)cccc1C` is recorded as 160 ± 14.9 min (Sprague-Dawley rat, female; sciatic nerve injection, 15 mM).
With `CC(c1cc2ccccc2s1)N(O)C(N)=O` (stereo not shown) the amount was 20 ± 6 pg/mL blood (refers to: RvE3; human whole blood; 3 µM, together with: Escherichia coli).
Under “change in CSF level”, `Cc1cn(-c2ccc3n(c2=O)CCN([C@@H](C)[C@@H]2CC[C@H](c4cc(F)c(Cl)cc4C(F)(F)F)O2)C3=O)cn1` is recorded as 294% (refers to: Aβ37; human, cerebrospinal fluid; 300 mg single dose, Tmax; reference: placebo-adjusted baseline).
`CC(C)[C@H](C(=O)Nc1ccc(C(=O)NO)cc1)c1ccccc1`: “tumour volume change” 15.3% (volumetric MRI; human, left IAC schwannoma; dose not given, day 57; reference: baseline).
`NC(=O)c1cnc2[nH]ccc2c1N[C@@H]1[C@@H]2CC3C[C@H]1C[C@@](O)(C3)C2` — result for “change from baseline”: 0.28% (flow cytometry, refers to: CD8+ effector T cells; Japanese healthy subjects, peripheral blood; oral, 10 mg twice daily, day 7).
For `CO[C@@H](C(=O)N1Cc2n[nH]c(NC(=O)c3ccc(N4CCN(C)CC4)cc3)c2C1)c1ccccc1`, the CA125 decline was ≥ 30% and 30% (human; concentration not given).
Under “delta delta Ct”, `COc1ccc(-c2cncc(N[C@@H](C)c3cccc(NC(=O)c4cncc(C)c4)c3)n2)cc1OC` is recorded as -0.127 (refers to: rno-miR-185-5p; rat SU5416/hypoxia model, lung; dose not given, unit not given; reference: SU5416/hypoxia vehicle).
For `CC(C)C[C@@H](C=O)NC(=O)[C@H](CC(C)C)NC(=O)[C@H](CC(C)C)NC(=O)OCc1ccccc1`, “degradation rate constant” read 0.0273 min⁻¹ (refers to: Ub(G76V)-GFP; 0.01 µM).
For `CCOc1cc([C@@H](CS(C)(=O)=O)N2C(=O)c3cccc(NC(C)=O)c3C2=O)ccc1OC`, “ear thickness difference” read -0.0839 (Balb/c mice, oxazolone atopic dermatitis; day 11, unit not given; reference: vehicle).
Under “log2 fold change”, `c1ccc(-c2n[nH]cc2-c2ccnc3ccccc23)nc1` is recorded as 1.33 (kinase binding, competitor, MIB/MS competition, refers to: SAK1; Candida albicans cell lysate; 1 µM; reference: DMSO).
For `COc1ccc2c(c1)CN(C(=O)CCN1CCC(Cc3ccccc3)CC1)CC[S@@+]2[O-]`, “atrial ERP prolongation” read 38% (anaesthetised Beagle dogs; intravenous, 0.1 mg/kg, pacing cycle length 250 ms).
`N#Cc1ccn2c(-c3ccncc3)c(-c3ccc(F)cc3)nc2c1`: “log2 fold change” -0.112 (kinase binding, competitor, MIB/MS competition, refers to: HST7; Candida albicans cell lysate; 100 nM; reference: DMSO).
For `O=C(O)CNC(=O)Cc1ccccc1`, the sarcomere length was 1.72 µm (ventricular cardiomyocytes, C57BL/6 mouse; dose not given, 0.656 s).
`OCCCN1CC[C@@H]2C[C@H]1c1cc(-c3ccc(C(F)(F)F)cc3)ccc12` — result for protein level: “no effect” (immunocytochemistry, refers to: BiP; DRG neurons, TMEM97 knock-out, mouse; dose not given).
`CC(=O)Oc1cc2c(s1)CCN(C(C(=O)C1CC1)c1ccccc1F)C2` (stereo not shown): “patients with IPA above threshold” 0% (platelet aggregation, light transmittance aggregometry; human, platelet-rich plasma; dose not given, 30 min, IPA above 90 %, together with: TRAP 15 µM; reference: patients).
Under “complete response, best response”, `O=C1Nc2cc3[nH]nc(-c4ccncc4)c3cc2CN1Cc1ccccc1` is recorded as 0% (RECIST v1.1; human, relapsed or refractory advanced solid tumours; intravenous, 4.8 mg/kg, pooled schedules).
`CC1(C)CCC(c2ccc(Cl)cc2)=C(CN2CCN(c3ccc(C(=O)NS(=O)(=O)c4ccc(N[C@H](CCN5CCOCC5)CSc5ccccc5)c(S(=O)(=O)C(F)(F)F)c4)cc3)CC2)C1` gave an EC50 of 265 nM (cell kill, PI exclusion flow cytometry; normal CD3+ T lymphocytes, human, lymph node; 24 h).
For `COc1cc(Nc2ncc3c(n2)-c2ccc(Cl)cc2C(c2c(F)cccc2OC)=NC3)ccc1C(=O)O`, “median response score” read 4 (mouse, OS-1 osteosarcoma xenograft; 20.8 mg/kg; direction not given).
Under “change from baseline”, `N#Cc1ccc2c(c1)[C@H]1CCCN(C(=O)c3ccc4[nH]cnc4c3)[C@H]1C2` is recorded as -8.38 mg/dL (refers to: LDL; human, Phase II trial; oral, 240 mg once daily, day 28, adjusted mean, SE).
`COc1cc(F)c([C@@H]2CNC(=O)[C@H]2NC(=O)Nc2ccccc2)c(F)c1` has an LV dP/dtmax of 6520 ± 704 mmHg/s (LV haemodynamics; rat, myocardial ischaemia-reperfusion; 1 mg/kg, 1008 h, 6 weeks post-injury).
`CSCCNc1nc(SCCC(F)(F)F)nc2c1ncn2[C@@H]1O[C@H](COP(=O)(O)OP(=O)(O)C(Cl)(Cl)P(=O)(O)O)[C@@H](O)[C@H]1O` — result for “patients with inhibition above threshold”: 2.5% (platelet aggregation, light transmission aggregometry; human patients, platelet-rich plasma; dose not given, 1 h, inhibition threshold 90%, together with: ADP 5 µM).
`N#CC[C@H](C1CCCC1)n1cc(-c2ncnc3[nH]ccc23)cn1` — result for “ear thickness difference”: -0.154 (Balb/c mice, oxazolone atopic dermatitis; day 23, unit not given; reference: vehicle).
With `O=C(OC(C(F)(F)F)C(F)(F)F)N1CCN(Cc2cccc(Oc3ccccc3)c2)CC1` the k3 was 0.085 min⁻¹ (PET blocking study; rhesus monkey, brain CB; 0.01 mg/kg, compound pretreatment, together with: [18F]T-401 tracer).
For `OC(CCN1CCCCC1)(c1ccccc1)C1CC2C=CC1C2` (stereo not shown), “delta power change, EEG, in Pz-O1” read 25.1% (resting-state EEG; healthy elderly humans; oral, 2 mg, eyes open, LS mean; reference: baseline).
The sarcomere length of `CC(C)NCC(O)c1ccc(O)c(O)c1` (stereo not shown) is reported as 1.61 µm (ventricular cardiomyocytes, C57BL/6 mouse; dose not given, 0.14 s).
`C=CCn1c(=O)c2cnc(Nc3ccc(N4CCN(C)CC4)cc3)nc2n1-c1ccc2c(n1)[C@@](O)(CC)CC2` — result for “tumour growth inhibition”: 133% (A-427 xenograft, NOD/SCID mouse; 80 mg/kg once daily).
`Cc1n[nH]c2ccc(-c3cc(OC[C@@H](N)Cc4ccccc4)cnc3-c3ccoc3)cc12`: “log2 fold change” -0.237 (kinase binding, competitor, MIB/MS competition, refers to: CDC7; Candida albicans cell lysate; 1 µM; reference: DMSO).
`C[C@H](Oc1ccc(Br)cc1-c1ccon1)C(=O)O` — result for “peak amplitude change”: -11% (muscle velocity recovery cycles; human, tibialis anterior muscle; 1200 mg single dose, 3.5 h post-dose, frequency ramp, last response at 30 Hz; reference: placebo).
`Cc1oncc1C(=O)Nc1ccc(C(F)(F)F)cc1`: “blood concentration increase” 8 fold (refers to: dihydroorotate; CD-1 mouse, female, whole blood; oral, 30 mg/kg, 8 h after first dose; reference: vehicle).
`N#Cc1ccc2c(-c3ccncc3)c(-c3ccc(F)cc3)nn2c1`: “log2 fold change” -0.796 (kinase binding, competitor, MIB/MS competition, refers to: RIO2; Candida albicans cell lysate; 100 nM; reference: DMSO).
`CN[C@@H]1COc2c(S(=O)(=O)NC(=O)Nc3c4c(cc5c3CCC5)CCC4)cnn2C1` gave an inhibition of 99.8% (refers to: IL-1β; human participants, whole blood ex vivo; 900 mg twice daily, multiple doses, 1 h, together with: LPS/ATP; reference: baseline).
Under “embryos reaching 4-cell”, `O=S(=O)(NCCNC/C=C/c1ccc(Br)cc1)c1cccc2cnccc12` is recorded as 0% (mouse zygotes; 20 µM, 48 h post-hCG).
`N#Cc1ccc(Oc2ccc3c(c2)COB3O)cc1`: “ear thickness difference” -0.228 (Balb/c mice, oxazolone atopic dermatitis; day 14, unit not given; reference: vehicle).
`CCCCC1(CCCC)CN(c2ccccc2)c2cc(SC)c(OCC(=O)N[C@@H](C(=O)NCC(=O)O)c3ccccc3)cc2S(=O)(=O)C1` gave a plasma C4 of 64.5 ng/mL (refers to: 7α-hydroxy-4-cholesten-3-one; human, plasma; 5 mg once daily, day 7).
